Results gathered from unrelated publications.
A part holds a random share of what one study measured. Changes are numbered by the printed parent chain.

Set 1 — technique: universal PBM; form: double-stranded DNA, one strand shown; medium: in vitro; tested at: 600 nM; direction: higher = stronger binding
Target: Sal-like protein 4, full length isoform A (SALL4, Homo sapiens, UniProt Q9UJQ4, residues 1-1053)
Sequence of UniProt Q9UJQ4 (whole entry, looked up): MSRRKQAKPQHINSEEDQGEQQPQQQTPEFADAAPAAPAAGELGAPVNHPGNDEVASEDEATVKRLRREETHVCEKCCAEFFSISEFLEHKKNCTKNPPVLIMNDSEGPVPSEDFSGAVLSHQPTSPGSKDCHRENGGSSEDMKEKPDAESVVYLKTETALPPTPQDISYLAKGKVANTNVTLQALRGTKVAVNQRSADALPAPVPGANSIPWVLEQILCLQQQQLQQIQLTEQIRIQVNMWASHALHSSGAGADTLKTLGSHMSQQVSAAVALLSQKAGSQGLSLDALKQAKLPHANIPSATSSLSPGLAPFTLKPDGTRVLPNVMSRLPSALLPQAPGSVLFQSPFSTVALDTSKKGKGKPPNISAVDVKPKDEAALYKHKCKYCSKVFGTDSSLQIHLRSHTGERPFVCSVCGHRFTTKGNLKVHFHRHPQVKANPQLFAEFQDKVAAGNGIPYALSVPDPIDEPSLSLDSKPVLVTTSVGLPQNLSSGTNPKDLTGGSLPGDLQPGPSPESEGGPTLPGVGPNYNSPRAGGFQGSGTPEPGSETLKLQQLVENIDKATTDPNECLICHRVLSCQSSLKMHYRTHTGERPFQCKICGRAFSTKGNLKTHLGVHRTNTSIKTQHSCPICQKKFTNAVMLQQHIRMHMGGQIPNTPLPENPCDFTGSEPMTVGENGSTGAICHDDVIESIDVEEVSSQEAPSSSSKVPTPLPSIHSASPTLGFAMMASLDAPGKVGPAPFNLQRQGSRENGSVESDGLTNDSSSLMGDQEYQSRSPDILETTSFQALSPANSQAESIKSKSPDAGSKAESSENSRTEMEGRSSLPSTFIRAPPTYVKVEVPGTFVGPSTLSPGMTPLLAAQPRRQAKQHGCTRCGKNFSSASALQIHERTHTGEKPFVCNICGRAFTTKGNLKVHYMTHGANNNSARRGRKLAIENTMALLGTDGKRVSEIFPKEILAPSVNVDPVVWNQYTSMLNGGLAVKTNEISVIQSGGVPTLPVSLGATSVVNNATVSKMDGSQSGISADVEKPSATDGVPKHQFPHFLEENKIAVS
Notes: 8-mer, flanks averaged, mean of replicates
Strand | E-score
CATAGTGA | 0.127
AGGCGCCG | -0.315
AGCCACAT | 0.0885
AAGATGAA | 0.152
GGATTGAA | 0.109
AAGGTTGT | 0.0444
GTTGCAAC | -0.069

Set 2 — technique: protein binding microarray; form: double-stranded DNA, one strand shown; medium: in vitro; tested at: not given; baseline: not given; direction: higher = stronger binding
Target: Histone acetyltransferase KAT6A, winged helix 2, GST fusion (KAT6A, Homo sapiens, UniProt Q92794, residues 85-181)
Notes: 8-mer, flanks averaged, mean of 2 arrays, mostly near background
Residues (chain): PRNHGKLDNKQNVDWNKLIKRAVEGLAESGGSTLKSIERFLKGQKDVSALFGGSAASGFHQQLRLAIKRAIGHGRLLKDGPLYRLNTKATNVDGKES
Strand | E-score
GCCCTTTA | -0.164
ACCAACCC | -0.00101
GCGGAAGA | 0.142
AGTATTCA | -0.0454
CACACAGA | 0.14
AGGGATAA | 0.0651
ACTTCTAC | -0.208

Set 3 — target: CCNA1, cyclin fold, Cln2 fusion (human); technique: yeast growth competition, sequencing; medium: yeast; notes: weak parent motif; baseline: not given; direction: higher = stronger binding
Starting sequence: ORC1 docking peptide (human); PRARKRLELGNLG; partner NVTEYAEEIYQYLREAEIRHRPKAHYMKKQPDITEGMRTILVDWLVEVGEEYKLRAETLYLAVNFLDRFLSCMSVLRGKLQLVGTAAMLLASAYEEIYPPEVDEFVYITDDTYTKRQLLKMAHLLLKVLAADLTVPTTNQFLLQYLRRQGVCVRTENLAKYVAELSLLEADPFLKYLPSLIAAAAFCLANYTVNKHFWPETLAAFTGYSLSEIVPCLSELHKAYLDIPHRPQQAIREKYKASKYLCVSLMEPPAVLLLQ
Variant | normalised enrichment score
PRARKRLCLGNLG [E8C] | -0.0233
DRARKRLELGNLG [P1D] | 0.439
PRARKRLELGDLG [N11D] | 0.687
PRACKRLELGNLG [R4C] | 0.136
IRARKRLELGNLG [P1I] | 0.608

Other studies, line by line
Molecule | target | test | test system | setting | how to read | endpoint | result
PhoQ, residues 284 288 289 292 302 303 SIHLQL | PhoP, residues 12 14 15 18 19 SQCLL (Escherichia coli, UniProt P23836) | Sort-seq, item: YFP reporter | E. coli | PhoQ-PhoP variant library, added: 10 µM Mg2+ | baseline: high Mg2+ state, higher = stronger signaling | fold induction | 14.5
